Results of several laboratories.
Lines come from different studies, so protocols differ.
MAPK14: Mitogen-activated protein kinase 14 (MAPK14, Homo sapiens, UniProt Q16539)
Sequence of UniProt Q16539 (whole entry, unmodified, looked up): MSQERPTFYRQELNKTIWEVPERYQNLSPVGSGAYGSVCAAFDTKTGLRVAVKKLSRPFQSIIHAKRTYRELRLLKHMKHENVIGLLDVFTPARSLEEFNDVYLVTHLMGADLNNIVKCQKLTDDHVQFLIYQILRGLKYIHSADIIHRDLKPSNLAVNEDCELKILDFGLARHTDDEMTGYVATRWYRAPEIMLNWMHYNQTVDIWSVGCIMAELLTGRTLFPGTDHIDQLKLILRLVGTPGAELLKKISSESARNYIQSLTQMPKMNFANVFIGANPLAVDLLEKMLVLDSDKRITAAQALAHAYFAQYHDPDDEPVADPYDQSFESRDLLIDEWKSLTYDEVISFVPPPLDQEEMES
MAPK14 T106M: Mitogen-activated protein kinase 14 (MAPK14, Homo sapiens, UniProt Q16539, T106M)

| Structure (SMILES) | target | assay | system | setting | scale | quantity | value |
| --- | --- | --- | --- | --- | --- | --- | --- |
| CC(C)[C@H]1NC(=O)C[C@H]2/C=C/CCSSC[C@@H](NC1=O)C(=O)N[C@H](Cc1cccc3ccccc13)C(=O)NCC(=O)O2 | MAPK14 | enzyme activity, inhibitor | – | 10 µM | – | inhibition | 5% |
| CS(C)(=O)=Nc1ccc(-c2ccc(-c3nc4cc(O[C@@H]5CO[C@H]6[C@@H]5OC[C@H]6O)[nH]c4cc3F)cc2)cc1 | MAPK14 T106M | enzyme activity, inhibitor | – | 10 µM | – | inhibition | -13% |
| O=C1NC(=O)c2c1c1cc(F)c[n+]3c1c1c2c2cc(O)ccc2[n]1[Ru-4]312([N]=C=S)[S+]3CC[S+]1CC[S+]2CC3 (stereo not shown) | MAPK14 T106M | enzyme activity | – | 100 nM, human enzyme, added: 10 µM ATP | relative to: untreated | remaining activity | 101% |
| Nc1ccc(/C=C/C(=O)N2CCc3c(oc4c(-c5ccc(F)cc5)cc(-c5ccc(C(=O)N6CCC(F)(F)CC6)cn5)cc34)C2)cn1 | MAPK14 | binding, competition with immobilised ligand | – | 1 µM | – | remaining binding | 95% |
| CCOC(=O)[C@@H]1Cc2c(cc([N+](=O)[O-])cc2[N+](=O)[O-])[C@H](O)[C@]12C(=O)Nc1ccc(Br)cc12 | MAPK14 | KINOMEscan | – | 100 nM | relative to: DMSO control | remaining binding | 95% |
| N[C@H](C(=O)N1CCCC1)C1CCN(c2nccc3c(-c4ncc(Cl)cc4Cl)cccc23)CC1 | MAPK14 | enzyme activity, inhibitor | – | 10 µM | – | inhibition | 31% |
| O=C(CN1CN(c2ccccc2)C2(CCN(C(=O)c3cnc4[nH]ncc4c3)CC2)C1=O)NCC(F)(F)F | MAPK14 | inhibitor | – | concentration not given | – | inhibition | < 50% |
| C[C@H](NCc1ccc(-c2ccc(C(F)(F)F)cc2)cc1)C(N)=O | MAPK14 | cell-free assay, competition with immobilised ligand | – | 1 µM | – | inhibition | 3% |
| [CH3][Ti+2][O]C(=O)c1ccc([S][Au][PH](c2ccccc2)(c2ccccc2)c2ccccc2)cc1.c1cc[cH-]c1.c1cc[cH-]c1 | MAPK14 | kinase activity, HotSpot kinase | – | 1 µM, added: ATP 10 µM | – | remaining activity | 119% |
| CN(C)[C@H]1C[C@@]23CC[C@@]4(O2)C(=CC[C@]2(C)[C@@H](c5ccc6ccncc6c5)CC[C@H]24)C=C3[C@@H](O)[C@@H]1O | MAPK14 | probe labelling, inhibitor, KiNativ ATP probe MS | native lysate | 0.1 µM | – | inhibition | 4.5% |
